Earlier results as cited in several papers.
Numbers after ± are the reported error. In brackets after ≈: the same amount, converted by molar mass.
UniProt Q9H2K8, sequence (whole entry, looked up): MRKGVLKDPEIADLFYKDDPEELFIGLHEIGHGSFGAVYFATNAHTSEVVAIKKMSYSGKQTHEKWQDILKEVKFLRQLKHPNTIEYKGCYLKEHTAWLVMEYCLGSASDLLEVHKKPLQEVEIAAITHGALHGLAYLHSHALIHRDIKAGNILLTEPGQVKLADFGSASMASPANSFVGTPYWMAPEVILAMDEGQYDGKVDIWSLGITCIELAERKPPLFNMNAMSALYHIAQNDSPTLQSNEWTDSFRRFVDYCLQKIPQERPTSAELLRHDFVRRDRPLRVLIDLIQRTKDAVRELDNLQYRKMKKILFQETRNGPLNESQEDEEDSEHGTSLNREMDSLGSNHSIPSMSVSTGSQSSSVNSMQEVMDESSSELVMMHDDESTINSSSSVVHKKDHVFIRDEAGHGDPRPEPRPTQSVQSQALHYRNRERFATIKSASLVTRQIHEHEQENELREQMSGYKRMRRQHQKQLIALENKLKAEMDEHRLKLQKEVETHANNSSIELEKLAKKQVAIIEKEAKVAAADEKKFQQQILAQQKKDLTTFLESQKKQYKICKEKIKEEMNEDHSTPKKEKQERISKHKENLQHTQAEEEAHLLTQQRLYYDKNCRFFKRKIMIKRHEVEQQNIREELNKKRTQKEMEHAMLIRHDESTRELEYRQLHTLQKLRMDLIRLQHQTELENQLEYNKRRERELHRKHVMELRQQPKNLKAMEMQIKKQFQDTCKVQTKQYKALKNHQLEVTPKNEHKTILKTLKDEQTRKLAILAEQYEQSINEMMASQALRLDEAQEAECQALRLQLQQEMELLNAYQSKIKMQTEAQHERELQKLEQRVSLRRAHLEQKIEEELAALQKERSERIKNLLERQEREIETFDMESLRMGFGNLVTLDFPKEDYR

O=C(O[C@@H]1Cc2c(O)cc(O)cc2O[C@@H]1c1cc(O)c(O)c(O)c1)c1cc(O)c(O)c(O)c1 — stability (cell culture medium; rapid autoxidation): unstable
Nc1ccn([C@@H]2CS[C@H](CO)O2)c(=O)n1 — oral bioavailability (rat; 10 mg/kg): 80%
c1ccc2c(c1)ccc1ccccc12 — Vmax (substrate; human liver microsomes): 0.304 nmol/min/mg
CCOc1cc2ncc(C#N)c(Nc3ccc(OCc4ccccn4)c(Cl)c3)c2cc1NC(=O)/C=C/CN(C)C — AUC(0-24) (human; 240 mg, single dose): 939 ng·h/mL
COc1cc2c(Oc3ccc4[nH]c(C)cc4c3F)ccnc2cc1OCC1(N)CC1 — AUC(0-t) (human; 10 mg single dose): 385 ± 175 ng·h/mL
CN(C)C(=N)N=C(N)N — non-renal clearance (human liver failure patients): 162 mL/min
CO[C@H]1/C=C/O[C@@]2(C)Oc3c(C)c(O)c4c(O)c(c(/C=N/N5CCN(C)CC5)c(O)c4c3C2=O)NC(=O)/C(C)=C\C=C\[C@H](C)[C@H](O)[C@@H](C)[C@@H](O)[C@@H](C)[C@H](OC(C)=O)[C@@H]1C — victim drug AUC decrease (perpetrator; human; dose not given, added: atorvastatin as victim drug): 80%
CNC(=O)c1c(C)oc2cc(Oc3ncnc4cc(OC)c(OC)cc34)ccc12 — dose recovered (urine; 5 mg radiolabelled, time not given): ~60%
Nc1ccn([C@@H]2O[C@H](CO)[C@@H](O)C2(F)F)c(=O)n1 — pneumonia incidence (metastatic pancreatic cancer patients; dose not given): 1%
O=C(O)CN(CCN(CC(=O)O)CC(=O)O)CCN(CC(=O)O)CC(=O)O — protonation constant (log) (pH-potentiometry, item: logK2H; 0.1 M NaClO4; 25 °C): 8.63
Nc1cc(C(F)(F)F)c(-c2nc(N3CCOCC3)nc(N3CCOCC3)n2)cn1 — remaining activity (TAOK3 (Homo sapiens, UniProt Q9H2K8); enzyme activity; 10 µM; baseline: untreated): 87%
Cc1cc(-c2nccc3c2ccn3CC(=O)Nc2ccc(-c3cnccn3)cn2)ccn1 — ECG effects (dog; up to 30 mg/kg/day, days 5 and 25): no effect
CNC(C)C1CCC(N)C(OC2C(N)CC(N)C(OC3OCC(C)(O)C(NC)C3O)C2O)O1 (stereo not drawn) — MIC (Escherichia coli; clinical isolate RKI-No_462/16): 1 µg/mL (≈ 2.09 µM)
N[C@@H](Cc1c[nH]c2ccccc12)C(=O)O — redox potential (baseline: NHE): 1.07 V
CO[C@H]1C[C@@H]2CC[C@@H](C)[C@@](O)(O2)C(=O)C(=O)N2CCCC[C@H]2C(=O)O[C@H]([C@H](C)C[C@@H]2CC[C@@H](OCCO)[C@H](OC)C2)CC(=O)[C@H](C)/C=C(\C)[C@@H](O)[C@@H](OC)C(=O)[C@H](C)C[C@H](C)/C=C/C=C/C=C/1C — apparent clearance (CL/F) (plasma; population PK two-compartment): 18.8 L/h
CCCC(C)(C)C(=O)O — EC10 (pericardial and yolk oedema; zebrafish embryo; nominal concentration): 426 µM
OC[C@H]1O[C@@H](Oc2cc3c(O)cc(O)cc3[o+]c2-c2ccc(O)c(O)c2)[C@H](O)[C@@H](O)[C@@H]1O — absorption maximum (solution; added: Fe3+): 650 nm
CC(C)(C(=O)O)c1ccc(C(O)CCCN2CCC(C(O)(c3ccccc3)c3ccccc3)CC2)cc1 (stereo not drawn) — AUC(0-6 h) (healthy volunteers; dose not given, normal P-gp activity category): 59.2 to 148 ng·h/mL
C[C@@H]1CCO[C@H]2Cn3cc(C(=O)NCc4ccc(F)cc4F)c(=O)c(O)c3C(=O)N12 — apparent clearance (CL/F) (population PK model; treatment-naive adult patients): 0.901 L/h
Nc1nc(O)c2ncn(COC(CO)CO)c2n1 — oral bioavailability (rat): 3.6%
COCCc1ccc(OCC(O)CNC(C)C)cc1 (stereo not drawn) — hepatic clearance (human CYP2D6 extensive metabolizers): ~50 L/h
C=CC(=O)NC1CCN(c2ncc3ncnc(Nc4ccc(Oc5ccc6c(c5)ncn6C)c(C)c4)c3n2)CC1 — time to steady state (human; dose not given): ~2.5 days
CC1(C)S[C@@H]2[C@H](NC(=O)[C@H](N)c3ccccc3)C(=O)N2[C@H]1C(=O)O — MIC (Escherichia coli; clinical isolate RKI-No_443/16): > 16 µg/mL
CC1(C)CCC(CN2CCN(c3ccc(C(=O)NS(=O)(=O)c4ccc(NCC5CCOCC5)c([N+](=O)[O-])c4)c(Oc4cnc5[nH]ccc5c4)c3)CC2)=C(c2ccc(Cl)cc2)C1 — AUC increase at steady state (patients; dose not given; baseline: Asian over non-Asian): ~67%

Some of these lines once more:
Nc1ccn([C@@H]2CS[C@H](CO)O2)c(=O)n1 — oral bioavailability (rat; 10 mg/kg): 80%
Cc1cc(-c2nccc3c2ccn3CC(=O)Nc2ccc(-c3cnccn3)cn2)ccn1 — ECG effects (dog; up to 30 mg/kg/day, days 5 and 25): no effect
